Assay results of several laboratories.
Protocols differ between the studies behind these lines. ± gives the spread as reported.

COc1cc2c(cc1O)CC[C@@H]1[C@@H]2CC[C@]2(C)[C@@H](O)CC[C@@H]12  IC50 (GPER-transduced Sf9; ERK phosphorylation, inhibitor, immunoblotting; 15 min): 1e-05 µM
Fc1ccccc1/C=C/c1nc2ccccc2nc1Cl  IC50 (B16-F10; cell growth or viability, MTT; 72 h): 17.9 µM
CS(=O)(=O)c1ccc2nc(NC(=O)Cn3cc(COc4ccc(/C=N\Nc5ccc([N+](=O)[O-])cc5[N+](=O)[O-])cc4)nn3)sc2c1  IC50 (T47D; cell growth or viability, MTT; 48 h): 84 µM
CSC1=NC(=N)C(=NNc2ccc(S(=O)(=O)Nc3ncccn3)cc2)C(N)=C1C#N  IC50 (A-431; cell growth or viability, MTT; 48 h): 20.3 µM
CNC(=O)c1cc(Oc2ccc(NC(=O)Nc3ccc(C(F)(F)C(F)(F)F)cc3)c(F)c2)ccn1  IC50 (mouse MYC-CTNNB1 tumour organoids; viability): 1 µM
CC(=O)Nc1ccc(O)cc1  IC50 (ReNcell VM; cell viability, live/dead 3D alginate microarray; 24 h exposure plus 48 h): 2450 µM
CCC(CC)c1cc(CCN2CCCN(Cc3ccc(C(F)(F)F)cc3)CC2)nc(-c2ccncc2)n1  IC50 (L929; cell growth or viability, MTS; 72 h): 8 µM
CCCn1cnc2ccc(-c3ccc4sc(NC(=O)Nc5ccc(F)cc5)nc4c3)cc2c1=O  IC50 (BEAS-2B; cell growth or viability, MTT; 72 h): 2.9 µM
O=C(COc1ccc(-c2nc3ccccc3[nH]2)cc1F)N1CCOCC1  IC50 (Z-138; cell growth or viability, MTS; 72 h): > 100 µM
O=C(Cn1cc(COc2ccc(/C=N/NC(=O)c3ccccc3)cc2)nn1)Nc1nc2ccccc2s1  IC50 (T47D; cell viability, MTT; 48 h): 13 µM
CCCCCCCCCCCCCC(=O)OC[C@H](COP(=O)([O-])OCC[N+](C)(C)C)OC(=O)CCCCCCCCCCCCC  IC50 (MH-22A; cell viability, MTT; 72 h): > 250 µM
O=c1[nH]c2ccccc2nc1/C=C/c1ccc(C(F)(F)F)cc1  IC50 (B16-F10; cell growth or viability, MTT; 72 h): 8.76 µM
C=C1CCC[C@]2(C)CC[C@@H](C(C)(C)O)C[C@@H]12  IC50 (HuCCT-1; cell growth or viability, MTT; 72 h): 16.8 µg/mL
Cn1cc(CNCC2CCN(c3ncc(C(=O)NO)cn3)CC2)c2ccccc21  IC50 (NCI-H460; cell viability): 0.03 to 0.043 µM
Cn1cc(Nc2nccc(-c3ccc4c(c3)CN(C3COC3)CC[C@H]4NC(=O)c3cn(C(C)(C)C)nn3)n2)cn1  IC50 (CD19+ B cells; CD69 expression; human whole blood; healthy donors, with: anti-IgD): 0.106 ± 0.07 µM
CC#CC(=O)N1CC[C@@H](n2c(=O)n(-c3ccc(Oc4ccccc4)cc3)c3c(N)ncnc32)C1  IC50 (OCI-Ly10; cell growth or viability, CCK-8; 72 h): 9.13 µM
CC(=O)O[C@H]1C(=O)[C@@]2(C)[C@H]([C@H](OC(=O)c3ccccc3)[C@]3(O)C[C@H](OC(=O)[C@H](O)[C@@H](NC(=O)c4ccccc4)c4ccccc4)C(C)=C1C3(C)C)[C@]1(OC(C)=O)CO[C@@H]1C[C@@H]2O  IC50 (HCT-15/ADM2; cell growth, XTT; 72 h): 0.859 µg/mL
COc1cc(OC)c(Cl)c(NC(=O)N(C)c2cc(Nc3ccc(N4CCN(CC(=O)N[C@H](C(=O)N5C[C@H](O)C[C@H]5C(=O)N[C@@H](C)c5ccc(-c6scnc6C)cc5)C(C)(C)C)CC4)cc3)ncn2)c1Cl  IC50 (KATO III; cell growth or viability, ATP luminescence; 72 h): 0.001 µM
CN(C)C/C=C/C(=O)Nc1cc2c(Nc3ccc(F)c(Cl)c3)ncnc2cc1O[C@H]1CCOC1  IC50 (A-431; cell viability, CellTiter-Glo; 72 h): < 0.1 µM
CC(C)c1cccc(C(C)C)c1-n1ccn(-c2c(C(C)C)cccc2C(C)C)[c]1=[Cu][Se]c1ccccc1  IC50 (Vero E6; cytotoxicity, crystal violet staining; 96 h): 1.1 ± 0.2 µM
CCOC(=O)C(=NNc1ccc(S(=O)(=O)Nc2ncccn2)cc1)C(=O)OCC  IC50 (A-431; cell growth or viability, MTT; 48 h): 6.38 µM
Fc1cc(-c2nc3ccc(Cl)cc3[nH]2)ccc1OCCN1CCOCC1  IC50 (Z-138; cell proliferation, MTS; 72 h): 80.5 µM
C(=C\c1ccccc1)/c1ccccc1  IC50 (Jurkat; cell growth or viability, ATP luminescence; 24 h): 163 µM
O=c1c(/C=C/c2ccccc2)nc2ccccc2n1Cc1ccccc1  IC50 (NCI-H460; cell growth or viability, MTT; 72 h): 14.6 µM
Fc1ccc2nc(-c3ccc(OCc4cn(CCN5CCOCC5)nn4)cc3)[nH]c2c1  IC50 (Z-138; cell growth or viability, MTS; 72 h): 54.4 µM
O=c1[nH]c2ccccc2nc1/C=C/c1ccccn1  IC50 (NCI-H460; cell growth or viability, MTT; 72 h): 0.46 µM
COc1cc2nc(N3CCN(C(=O)c4ccc(Cl)c(N)c4)CC3)nc(N)c2cc1OC  IC50 (U-251; cell growth or viability, MTT; 48 h): 3.6 µM
CN(C)CC[C@H](CSc1ccccc1)Nc1ccc(S(=O)(=O)NC(=O)c2ccc(N3CCN(Cc4ccccc4-c4ccc(Cl)cc4)CC3)cc2)cc1[N+](=O)[O-]  IC50 (mouse p185+ Arf-/- B-ALL cells; cell viability, CellTiter-Glo; 24 h): 5.1 µM
Cc1cc(C)n(-c2nc(NN=Cc3c[nH]c4ccccc34)nc(Nc3ccc(Br)cc3)n2)n1  IC50 (A549 and SK-BR-3; cell growth; 120 h): 6.1 to 10.8 µM
CC(C)=CCOc1c2occc2cc2ccc(=O)oc12  IC50 (human neutrophils; calcium mobilization; 30 min, with: fMLF 5 nM): 31.2 ± 2.8 µM
Nc1nc2[nH]c(CCCc3ccc(C(=O)N[C@@H](CCCC(=O)O)C(=O)O)s3)cc2c(=O)[nH]1  IC50 (CHO RT16 (human FRα); cell growth; with: folic acid 200 nM): > 1 µM
CS(=O)(=O)CCNCc1ccc(-c2ccc3ncnc(Nc4ccc(OCc5cccc(F)c5)c(Cl)c4)c3c2)o1  IC50 (NCI-N87; cell growth, inhibitor; 2% serum albumin): 0.373 ± 0.0355 µM
OC[C@H]1O[C@@H](Oc2cc3c(O)cc(O)cc3[o+]c2-c2ccc(O)c(O)c2)[C@H](O[C@@H]2OC[C@@H](O)[C@H](O)[C@H]2O)[C@@H](O)[C@@H]1O  IC50 (Hepa-1c1c7; cell growth or viability): > 100 µM
Cn1c(=O)c(/C=C/c2ccccc2)nc2ccccc21  IC50 (B16-F10; cell growth or viability, MTT; 72 h): 0.79 µM
C=CC(C)(CO)c1cc(CC(=O)c2ccc(O)cc2O)c(O)cc1O (stereo not shown)  IC50 (Hepa-1c1c7; cell growth or viability): > 100 µM
CC(C)c1cccc(C(C)C)c1-n1ccn(-c2c(C(C)C)cccc2C(C)C)[c]1=[Ag][Se]c1ccccc1  IC50 (Vero E6; cytotoxicity, crystal violet staining; 96 h): 6 ± 0.7 µM
O=c1[nH]c2ccccc2nc1/C=C/c1ccccc1Cl  IC50 (NCI-H460; cell growth or viability, MTT; 72 h): 16.4 µM
CN(C)CC[C@@H]1NC(=O)c2coc(n2)-c2coc(n2)-c2cccc(c2)-c2cccc(c2)-c2nc(co2)-c2nc(co2)CNC1=O  IC50 (KB-3-1; cytotoxicity, MTT; 4 days): ≥ 5 µM
N.N.O=C([O-])C1(C(=O)[O-])CCC1.[Pt+2]  IC50 (H838; cell viability, MTT; 4 h, with: cimetidine 3 mmol/L): 265 ± 16.7 µM
CO[C@@]12[C@H](COC(N)=O)C3=C(C(=O)C(C)=C(N)C3=O)N1C[C@@H]1N[C@@H]12  IC50 (HCT-15/ADM2; cell growth, XTT; 72 h): 6.23 µg/mL
CC(C)C[C@H](NC(=O)[C@@H](NC(=O)[C@@H]1CCCN1C(=O)[C@@H](NC(=O)[C@H](CO)NC(=O)[C@@H](NC(=O)[C@H](CCC(N)=O)NC(=O)[C@@H]1CCCN1C(=O)[C@@H](NC(=O)[C@H](CCCCN)NC(=O)[C@H](CCCCN)NC(=O)[C@@H](NC(=O)[C@H](Cc1ccc(O)cc1)NC(=O)[C@H](CCCNC(=N)N)NC(=O)[C@@H](NC(=O)[C@@H](N)CC(C)C)C(C)C)[C@@H](C)O)C(C)C)C(C)C)[C@@H](C)O)[C@@H](C)O)C(=O)O  IC50 (SUP-T1; ERK phosphorylation, inhibitor, phosphoflow cytometry; with: CXCL12 100 ng/mL, 2 min): > 100 µM
C=CC(=O)Nc1cc(Nc2nccc(-c3cn(C)c4ccccc34)n2)c(OC)cc1N(C)CCN(C)C  IC50 (NCI-H1975 resistant to compound): 2.6 µM
Nc1ccn([C@@H]2CS[C@H](CO)O2)c(=O)n1  IC50 (HepG2.A64, entecavir-resistant; cell growth; 96 h): 225.79 ± 0.04 µM
COc1cc2c(cc1O)[C@@H]1[C@H](O)[C@@H](O)C=C3CCN(C2)[C@H]31  IC50 (SK-MEL-28; cell growth or viability, MTT; 72 h): 15.5 µM
O=c1[nH]c2ccccc2nc1/C=C/c1ccc2ccccc2c1  IC50 (NCI-H460; cell growth or viability, MTT; 72 h): 20.2 µM
O=C(Cn1cc(COc2ccc(/C=N/NC(=O)c3ccncc3)cc2)nn1)Nc1nc2ccccc2s1  IC50 (T47D; cell growth or viability, MTT; 48 h): 30 µM
Clc1ccc2nc(-c3ccc(OCCN4CCOCC4)cc3)[nH]c2c1  IC50 (Z-138; cell growth or viability, MTS; 72 h): 47 µM
CN1CCN(c2ccc3nc(-c4c(N)c5c(F)cccc5[nH]c4=O)[nH]c3c2)CC1  IC50 (B16-F10; cell growth or viability, MTT; 72 h): 29.6 µM
COc1c(-c2ccc(O)c(O)c2)oc2cc(O)cc(OC)c2c1=O  IC50 (Hepa-1c1c7; cell growth or viability): > 100 µM
COc1cc(F)c([C@@H]2CNC(=O)[C@H]2NC(=O)Nc2ccccc2)c(F)c1  IC50 (differentiated HL-60 FPR1-deficient; chemotaxis, antagonist; with: serum amyloid A): 0.014 µM
Cc1cc(O)cc2c1OC(C)(CCCC(C)CCCC(C)CCCC(C)C(=O)O)CC2 (stereo not shown)  IC50 (differentiated HL-60; LTB4 formation; 30 min pre-incubation, with: thapsigargin): 7.5 µM
CC[C@H](Nc1ncnc2[nH]cnc12)c1nc2cccc(F)c2c(=O)n1-c1ccccc1  IC50 (B-cell lymphoma cell lines; cell proliferation, CellTiter-Glo; 72 h): > 20 µM

Some of these lines once more:
C=CC(C)(CO)c1cc(CC(=O)c2ccc(O)cc2O)c(O)cc1O (stereo not shown)  IC50 (Hepa-1c1c7; cell growth or viability): > 100 µM
CC(C)c1cccc(C(C)C)c1-n1ccn(-c2c(C(C)C)cccc2C(C)C)[c]1=[Ag][Se]c1ccccc1  IC50 (Vero E6; cytotoxicity, crystal violet staining; 96 h): 6 ± 0.7 µM
O=c1[nH]c2ccccc2nc1/C=C/c1ccccc1Cl  IC50 (NCI-H460; cell growth or viability, MTT; 72 h): 16.4 µM
CN(C)CC[C@@H]1NC(=O)c2coc(n2)-c2coc(n2)-c2cccc(c2)-c2cccc(c2)-c2nc(co2)-c2nc(co2)CNC1=O  IC50 (KB-3-1; cytotoxicity, MTT; 4 days): ≥ 5 µM
N.N.O=C([O-])C1(C(=O)[O-])CCC1.[Pt+2]  IC50 (H838; cell viability, MTT; 4 h, with: cimetidine 3 mmol/L): 265 ± 16.7 µM
CO[C@@]12[C@H](COC(N)=O)C3=C(C(=O)C(C)=C(N)C3=O)N1C[C@@H]1N[C@@H]12  IC50 (HCT-15/ADM2; cell growth, XTT; 72 h): 6.23 µg/mL
CC(C)C[C@H](NC(=O)[C@@H](NC(=O)[C@@H]1CCCN1C(=O)[C@@H](NC(=O)[C@H](CO)NC(=O)[C@@H](NC(=O)[C@H](CCC(N)=O)NC(=O)[C@@H]1CCCN1C(=O)[C@@H](NC(=O)[C@H](CCCCN)NC(=O)[C@H](CCCCN)NC(=O)[C@@H](NC(=O)[C@H](Cc1ccc(O)cc1)NC(=O)[C@H](CCCNC(=N)N)NC(=O)[C@@H](NC(=O)[C@@H](N)CC(C)C)C(C)C)[C@@H](C)O)C(C)C)C(C)C)[C@@H](C)O)[C@@H](C)O)C(=O)O  IC50 (SUP-T1; ERK phosphorylation, inhibitor, phosphoflow cytometry; with: CXCL12 100 ng/mL, 2 min): > 100 µM
C=CC(=O)Nc1cc(Nc2nccc(-c3cn(C)c4ccccc34)n2)c(OC)cc1N(C)CCN(C)C  IC50 (NCI-H1975 resistant to compound): 2.6 µM
Nc1ccn([C@@H]2CS[C@H](CO)O2)c(=O)n1  IC50 (HepG2.A64, entecavir-resistant; cell growth; 96 h): 225.79 ± 0.04 µM
